Experimental data collected from several papers.
Numbered parts are unrelated; each lists some results of a single study. Substitutions count along the parent as printed.

Sample 1 — method: DHFR PCA, deep sequencing; sample: yeast; together with: (+)-ABA 0 µM; relative to: wild-type fitted maximum; direction: higher = stronger binding; endpoint: relative binding score
Target: ABI1, truncated, D143A, DHFR fusion (Arabidopsis thaliana)
Notes: methotrexate growth selection, single substitutions
Starting sequence: PYL1, truncated, DHFR fusion (Arabidopsis thaliana); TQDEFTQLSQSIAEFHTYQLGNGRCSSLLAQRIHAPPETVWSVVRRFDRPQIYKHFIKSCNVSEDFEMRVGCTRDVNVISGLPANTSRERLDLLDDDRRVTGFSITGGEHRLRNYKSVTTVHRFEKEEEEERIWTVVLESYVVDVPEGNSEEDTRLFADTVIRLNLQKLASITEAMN; partner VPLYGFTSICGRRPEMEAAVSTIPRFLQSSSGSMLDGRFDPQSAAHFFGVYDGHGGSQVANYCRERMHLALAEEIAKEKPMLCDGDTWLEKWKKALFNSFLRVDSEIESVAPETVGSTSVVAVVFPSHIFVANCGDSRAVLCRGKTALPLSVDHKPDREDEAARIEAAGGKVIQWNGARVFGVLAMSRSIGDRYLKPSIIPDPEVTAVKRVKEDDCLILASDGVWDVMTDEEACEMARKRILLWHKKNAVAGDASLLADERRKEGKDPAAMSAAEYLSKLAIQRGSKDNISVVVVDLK
V40Q: 5.2%
N22T: 34.8%
V143Y: -0.692%
L28N: -1.4%
E130K: 40.6%
L138N: -6.13%
Y53V: -4.1%
T160K: -2.61%
Q51T: -3.89%
G148I: -20.9%
G71D: 10.4%
I162Q: -2.51%
E128P: 6.07%
E129A: 30.6%
A84S: 35.3%
P36K: 9.04%
T101P: -3.77%
E147W: -2.13%
Y18V: -0.552%
T73L: 12.3%
D75C: 10.2%
S27P: 2.79%
D153Y: -4.77%
E38C: 0.178%

Sample 2 — method: protein-binding microarray; form: double-stranded DNA, one strand shown; sample: in vitro; tested at: 250 nM; notes: 60-bp whole probe; together with: salmon DNA 0.4 mg/ml; relative to: random background probes; direction: higher = stronger binding; endpoint: log fluorescence; shared flanks, not repeated: GCCTAGCAC … GTCTTGATTCGCTTGACGCTGCTG
Target: Interferon regulatory factor 7, full length, phosphomimetic (IRF7, Homo sapiens, UniProt Q92985, residues 1-503, S101K/S471D/S472D/S475D/S476D/S477D/S483D/S484D/S487D)
Chain of UniProt Q92985 (whole entry, unmodified, looked up): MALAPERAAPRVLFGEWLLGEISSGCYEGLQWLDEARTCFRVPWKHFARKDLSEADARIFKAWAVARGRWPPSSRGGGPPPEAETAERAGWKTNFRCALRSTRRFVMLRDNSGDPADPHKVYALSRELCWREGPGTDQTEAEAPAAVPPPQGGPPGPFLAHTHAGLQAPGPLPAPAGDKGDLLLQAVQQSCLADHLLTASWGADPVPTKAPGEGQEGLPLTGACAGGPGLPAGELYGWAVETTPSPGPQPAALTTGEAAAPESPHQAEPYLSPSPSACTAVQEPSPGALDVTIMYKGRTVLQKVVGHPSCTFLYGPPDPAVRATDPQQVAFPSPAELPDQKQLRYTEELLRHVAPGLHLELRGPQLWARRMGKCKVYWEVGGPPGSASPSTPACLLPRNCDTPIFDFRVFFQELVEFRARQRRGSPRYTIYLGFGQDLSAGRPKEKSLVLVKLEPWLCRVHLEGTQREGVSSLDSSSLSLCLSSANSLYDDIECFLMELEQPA
GATGGTATCGGACTGGGGACGTGCTAG: -0.245 z-score
TTAGGACTGCTTTTCATTTAGTGCTAG: 1.23 z-score
ACTTCTCCATTTTTCTAGTCGTGCTAG: 2.04 z-score
TCAGATTTCCTTCACCCACTGTGCTAG: 0.75 z-score
TCACTTCTGGGCTGTTTAACTGTGCTA: 0.0601 z-score
GACGGGATCCTACTGCTGACGTGCTAG: -0.398 z-score
TAAGAAAAGCCACCAGGACCGTGCTAG: -0.601 z-score
TCAATTCTTTTTATGCTACTGTGCTAG: 0.805 z-score
TTAGGACTCCTTCTCCTTTAGTGCTAG: 0.452 z-score
GACGGTCTCCTACTGCTGAAGTGCTAG: 0.228 z-score
TTAGATATCAGACTGCATTAGTGCTAG: 0.106 z-score
GACGAATTGGGGTTTCGAGACGTGCTA: 2.19 z-score
TCTCTTTCCACTTGTCTTTTCGTGCTA: 2.81 z-score
TTAGGTATCGGGGCTGGGTTAGTGCTA: -0.135 z-score
TTCGGTATCGGGTATCGGTTAGTGCTA: 1.52 z-score
CTATTTTTCACCTGCACTCAGTGCTAG: 1.53 z-score
CTAATTCTCTTTTCACTTTCGTGCTAG: 3.35 z-score
GGCGGTTTCGGGACTGGGGACGTGCTA: 3.66 z-score
TCTCTTTTCACTTTCTTTACGTGCTAG: 3 z-score

Sample 3 — method: aptamer microarray, sandwich; form: DNA with 2'F-ANA; sample: in vitro; tested at: 200 nM; together with: Cy3 exosite-II aptamer, 400 nM; direction: higher = stronger binding; endpoint: mean fluorescence intensity; oligonucleotide: GGTTGGTGTGGTTGG
Target: Prothrombin, mature alpha-thrombin (F2, Homo sapiens, UniProt P00734)
Notes: whole 15-mer aptamer, many near background
2'F-ANA at 1 3 5 6 7 8 9 13 15: 53.1 a.u.
2'F-ANA at 2 4 7 12 13 14: 146 a.u.
2'F-ANA at 1 3 8 10 14 15: 58.9 a.u.
2'F-ANA at 1 2 3 5 8 10 11 12 13: 50.3 a.u.
2'F-ANA at 1 2 4 5 7 8 10 11 13 14 15: 51.6 a.u.
2'F-ANA at 1 3 5 6 8 9 14: 45.3 a.u.
2'F-ANA at 4 6 8 11 12 15: 428 a.u.
2'F-ANA at 3 5 10 13 14: 63.8 a.u.
2'F-ANA at 2 5 6 7 8 10 11 14: 47.1 a.u.
2'F-ANA at 3 4 12 14: 430 a.u.
2'F-ANA at 1 2 3 5 6 10 11: 47.7 a.u.
2'F-ANA at 3 4 5 7 8 9 10 12 15: 67.1 a.u.
2'F-ANA at 1 3 7 9 10 11 13 14: 56.9 a.u.
2'F-ANA at 1 5 9 10 11 12 15: 48.9 a.u.
2'F-ANA at 4 12 13 15: 423 a.u.
2'F-ANA at 2 6 7 8 11 12 14: 178 a.u.
2'F-ANA at 3 4 7 11 13 14: 415 a.u.
2'F-ANA at 3 4 6 8 10 11 13 15: 169 a.u.
2'F-ANA at 1 3 6 10 13 14 15: 61.8 a.u.
2'F-ANA at 1 3 4 6 7 9 12 15: 324 a.u.
2'F-ANA at 1 3 5 7 8 11 12 14: 47.6 a.u.

Sample 4 — method: universal PBM; form: double-stranded DNA, one strand shown; sample: in vitro; tested at: 600 nM; direction: higher = stronger binding; endpoint: E-score
Target: Sal-like protein 4, full length isoform A (SALL4, Homo sapiens, UniProt Q9UJQ4, residues 1-1053)
Chain of UniProt Q9UJQ4 (whole entry, looked up): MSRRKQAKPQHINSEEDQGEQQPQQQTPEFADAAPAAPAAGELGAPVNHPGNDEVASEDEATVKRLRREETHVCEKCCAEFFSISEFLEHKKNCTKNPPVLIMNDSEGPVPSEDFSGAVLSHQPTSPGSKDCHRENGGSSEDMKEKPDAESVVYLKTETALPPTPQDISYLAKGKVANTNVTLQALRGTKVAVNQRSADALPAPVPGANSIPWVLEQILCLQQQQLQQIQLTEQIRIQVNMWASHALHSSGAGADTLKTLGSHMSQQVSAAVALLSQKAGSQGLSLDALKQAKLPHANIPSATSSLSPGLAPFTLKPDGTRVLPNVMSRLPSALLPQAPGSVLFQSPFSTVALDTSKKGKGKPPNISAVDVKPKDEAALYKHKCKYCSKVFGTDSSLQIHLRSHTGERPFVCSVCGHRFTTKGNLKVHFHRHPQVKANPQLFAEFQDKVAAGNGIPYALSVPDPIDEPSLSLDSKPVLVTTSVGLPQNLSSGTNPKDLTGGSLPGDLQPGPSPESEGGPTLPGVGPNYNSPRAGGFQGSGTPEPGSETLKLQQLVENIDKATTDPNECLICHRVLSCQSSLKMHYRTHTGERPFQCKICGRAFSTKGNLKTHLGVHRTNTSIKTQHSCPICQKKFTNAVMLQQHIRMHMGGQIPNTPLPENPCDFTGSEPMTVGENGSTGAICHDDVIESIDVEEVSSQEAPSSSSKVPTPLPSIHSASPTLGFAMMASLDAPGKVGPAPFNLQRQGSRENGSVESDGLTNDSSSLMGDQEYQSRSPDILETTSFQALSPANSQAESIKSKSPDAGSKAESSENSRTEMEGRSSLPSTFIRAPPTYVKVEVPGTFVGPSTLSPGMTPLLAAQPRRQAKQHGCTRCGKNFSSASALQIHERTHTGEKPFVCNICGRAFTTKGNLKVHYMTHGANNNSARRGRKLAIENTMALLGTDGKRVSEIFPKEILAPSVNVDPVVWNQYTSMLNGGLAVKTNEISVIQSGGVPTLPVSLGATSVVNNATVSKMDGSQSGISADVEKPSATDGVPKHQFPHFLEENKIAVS
Notes: 8-mer, flanks averaged, mean of replicates
CTGGTATA: -0.0301
CGTACGAA: 0.131
ACAGCCCC: -0.32
GAGCAGTA: 0.0768
GTCCTCGA: -0.16
ACCATGAG: -0.0415
ACAGTGAG: -0.0237
GACTCTTA: 0.154
GTAAGTAC: 0.0676
AAGGAATG: 0.148
ACGCGCAC: -0.259
ACCATGCG: -0.139
CATCGTAA: 0.149
GCACATGC: -0.123
CCATCCCA: -0.0188
ACTTTTGA: 0.185
CGGGGTGC: -0.262
CAGTAACC: -0.167
AGTTACAT: 0.181
ACTTCACT: 0.0979

Sample 5 — method: RNA Bind-n-Seq; form: RNA; sample: in vitro; tested at: 365 nM; relative to: no-protein control; direction: higher = stronger binding; endpoint: RBNS enrichment (R)
Target: RNA binding protein fox-1 homolog 2, RRM domain, GST-SBP tag (RBFOX2, Homo sapiens, UniProt O43251-10, residues 100-194)
Notes: natural RNA segment, single round, ends assumed
Shared flanks, not repeated: GGGAGUUCUACAGUCCGACGAUC … UGGAAUUCUCGGGUGCCAA
UUUCAGUUUGCCUUUUAUGUAAAUUUUUUACGUAGCUAUUUUUAUACACUGUAAGCUUUGUUCUGGGAGUGGCUGUUAAUUGGAUGUAUAAUGUAACGUUUUAUUUCAAU: 0.612
UGGGGGCACCCCCUCUCCCUGGGAUAGCCACUGUCGGGGAGCACAGGACCAGCCUCUGGAUCAGUCCCUCUCUGCCCCUUCACUUCUGUCUCUAGCUCACUGGCUCUGUG: 0.631
GUACUUAAGGAAGGUAGUUGCAAAUACCAACUAUGGCCAUGCGAUCAGGCGCAGAAAUGAGGAUUACUGUUUCUUCCAGAUUUUGUUAAGAAUGUGUUCAGAUAUUUGUG: 0.551
UAUUUAAAAGGGAUACUUUUGUAAAAGUAAAACCUUGUAUAAAGAACAAAAUGUUUCUUAAUUUUAUUGUGGAGUUACAACUUGCAUGUUCCUUACUCCUGUUGGCUUGA: 12.1
GGGCUCUGAGCUGCACUGGCCCCGGUGCUGGCAUCUGGUGGAGCGGACCCACUCCCCUCACAUUCCACAGGCCCAUGGACUCACUUUUGUAACAAACUCCUACCAACACU: 0.413
UUUUGGGUCAGGGUUUCACUGUGUUGCCCAGGCUAGAGUGCAGUGGUGCCACAGCUCACUGUGACCUUGACCUUCUGGACUCAAGUGAUCCUCCUGCCUCAGCUUCCCAA: 0.385
CUGUGGUUUUGACUUCCUUAUCUCUUGGGAGAAGCUUCUGUUUUAAGGAAUUUCUCUUCCUUCUUCUCCUGCCUCUAGCCUCUCCUGGAAAGGCCUGGAUAUGGUUUCUA: 0.389
GGCAAGCAGUUCAUCACCAGGACACUAGCUAUGAUUCUAGAAGUCAAAAGGUGUCUAUAGAACUAGUGGGGCUUCUGCAUGUGAAAAACGGUUUUCCAUAGGCAUUAAAG: 4.61
UUUCUUUGUUAAUUGUACACUGAAUAAUGCCUUUUAAAAAUCAAAAUAAAAUUAACAAAUAAUGGUGAAUGAAGUGAGAUGAAAACUUGCUUAAUUUUUGCCUUGAUGAG: 0.381
CAGGUCAGGAGUACAGCUUGUGAAACUCACCAAAAUGAAUAGUUGUUUCGUUACAUUUAGAUGAAAGUUAAACUUUACUGAAUUUCAGUACAUUAGUUUUUACACUAAAA: 1.4
AUAAACCUUAAGUGAAAUGAAAGAAAAAGAUCUAUUGCAGAUAUCUGAUGGAUGUAGUUUUCUUUUUUUAAAUUAGAAAUGCCACUUCUAUUGUAUUGUCUCACACAUGC: 0.704
ACCGUCCGCUUUUCCUGAGUUCUCCCUCCCAAUUGGCUCCAGCUUCCUGGGGGCGUGGCCAAGCCCUCCUCUUCCCAGAAUUGGCCCGGGGCCUUCAAUUUACGUUCUUU: 0.394

Excerpt of the above (sample 2):
TTAGGTATCGGGGCTGGGTTAGTGCTA: -0.135 z-score
TTCGGTATCGGGTATCGGTTAGTGCTA: 1.52 z-score
TCACTTCTGGGCTGTTTAACTGTGCTA: 0.0601 z-score
GACGGTCTCCTACTGCTGAAGTGCTAG: 0.228 z-score
TTAGATATCAGACTGCATTAGTGCTAG: 0.106 z-score
GACGGGATCCTACTGCTGACGTGCTAG: -0.398 z-score
TTAGGACTGCTTTTCATTTAGTGCTAG: 1.23 z-score
GATGGTATCGGACTGGGGACGTGCTAG: -0.245 z-score
GACGAATTGGGGTTTCGAGACGTGCTA: 2.19 z-score
